Measured values from different studies.
Lines come from different studies, so protocols differ. ± gives the spread as reported.
Method: steady-state kinetics
B1: RbgA (Bacillus subtilis, UniProt O31743); chain MTIQWFPGHMAKARREVTEKLKLIDIVYELVDARIPMSSRNPMIEDILKNKPRIMLLNKADKADAAVTQQWKEHFENQGIRSLSINSVNGQGLNQIVPASKEILQEKFDRMRAKGVKPRAIRALIIGIPNVGKSTLINRLAKKNIAKTGDRPGITTSQQWVKVGKELELLDTPGILWPKFEDELVGLRLAVTGAIKDSIINLQDVAVFGLRFLEEHYPERLKERYGLDEIPEDIAELFDAIGEKRGCLMSGGLINYDKTTEVIIRDIRTEKFGRLSFEQPTM
B2: BaiA1 (Clostridium scindens, UniProt P07914); chain MKLVQDKITIITGGTRGIGFAAAKLFIENGAKVSIFGETQEEVDTALAQLKELYPEEEVLGFAPDLTSRDAVMAAVGTVAQKYGRLDVMINNAGITMNSVFSRVSEEDFKNIMDINVNGVFNGAWSAYQCMKDAKQGVIINTASVTGIYGSLSGIGYPTSKAGVIGLTHGLGREIIRKNIRVVGVAPGVVDTDMTKGLPPEILEDYLKTLPMKRMLKPEEIANVYLFLASDLASGITATTISVDGAYRP
B3: putA N641A (Bradyrhizobium diazoefficiens, UniProt Q89E26); chain MPNIPPPFTAPYAPDDAEIAARLLPASHLSPPQEARIHRTATRLIEAIRKRDDRLGGVEDMLREFALSTKEGLALMVLAEALLRVPDARTADQFIEDKLGEGDFIHHETKSTAFLVNASAWALGLSARVIQPGETPDGTIGRLVKRLGAPAVRTATRQAMRLMGNHFVLGETIEQALERGKPRSGQKTRYSFDMLGEGARTAADARRYFDAYASAIETIGKAAGNHALPDRPGISVKLSALHPRFEAISRARVMVELVPQLLDLAQRAKAHDLNFTVDAEEADRLELSLDVIAATLADPSLKGWDGFGLAIQAYQKRASAVIDYVDALARAHDRKLMVRLVKGAYWDTEIKRAQERGLDGYPVFTRKAMTDLNYVACASKLLALRPRIFPQFATHNALTVATVLEMAEGSSGFEFQRLHGMGEALYEQLAKDHADIAYRTYAPVGSHRDLLAYLVRRLLENGANSSFVAQAADYRVPVPALLQRPADAIVRPQAAAHPRIPLPCDLFAPERRNSRGVEFGARTALDQLLTDVKAETGDLKPIADATPDQAHAAVAAARAGFAGWSRTPAGIRAAALEQAAHLLESRSAHFIALLQREGGKTLDDALSELREAADFCRYYAAQGRKLFGSETAMPGPTGESAALTMRGRGVFVAISPWNFPLAIFLGQVTAALMAGNSVVAKPAEQTPRIAREAVALLHEAGIPKSALYLVTGDGRIGAALTAHPDIAGVVFTGSTEVARSINRALAAKDGPIVPLIAETGGINAMIADATALPEQVADDVVTSAFRSAGQRCSALRLLFVQEDVADRMIEMVAGAARELKIGDPSDVATHVGPVIDVEAKQRLDAHIARMKTEARLHFAGPAPEGCFVAPHIFELTEAGQLTEEVFGPILHVVRYRPENLERVLRAIERTGYGLTLGVHSRIDDSIEAIIDRVQVGNIYVNRNMIGAVVGVQPFGGNGLSGTGPKAGGPHYLARFATEQTVTINTAAAGGNAALLAGEE
B4: TcC (Trypanosoma cruzi, UniProt Q4DGA3); chain MPREYEFAEKILFTEEEIRTRIMEVAKRIADDYKGKGLRPYVNPLVLISVLKGSFMFTADLCRALSDFNVPVRMEFICVSSYGEGVTSSGQVRMLLDTRHSIEGHHVLIVEDIVDTALTLNYLYHMYFTRRPASLKTVVLLDKREGRRVPFSADYVVANIPNAFVIGYGLDYDDTYRELRDIVVLRPEVYAEREAARQKKQRAIGSADTDRDAKREFHSKY
B5: Tat (Mus musculus, UniProt Q8QZR1); chain WNVRPSDMSNKTFNPIRAIVDNMKVKPNPNKTVISLSIGDPTVFGNLPTDPEVTQAMKDALDSGKYNGYAPSIGYLSSREEVASYYHCPEAPLEAKDVILTSGCSQAIELCLAVLANPGQNILIPRPGFSLYRTLAESMGIEVKLYNLLPEKSWEIDLKQLESLIDEKTACLVVNNPSNPCGSVFSKRHLQKILAVAERQCVPILADEIYGDMVFSDCKYEPMATLSTNVPILSCGGLAKRWLVPGWRLGWILIHDRRDIFGNEIRDGLVKLSQRILGPCTIVQGALKSILQRTPQEFYQDTLSFLKSNADLCYGALSAIPGLQPVRPSGAMYLMVGIEMEHFPEFENDVEFTERLIAEQSVHCLPATCFEYPNFFRVVITVPEVMMLEACSRIQEFCEQHY
B6: CDO (Bacillus subtilis, UniProt O32085); chain MELYECIQDIFGGLKNPSVKDLATSLKQIPNAAKLSQPYIKEPDQYAYGRNAIYRNNELEIIVINIPPNKETTVHDHGQSIGCAMVLEGKLLNSIYRSTGEHAELSNSYFVHEGECLISTKGLIHKMSNPTSERMVSLHVYSPPLEDMTVFEEQKEVLENS
B7: asnB E349D (Escherichia coli, UniProt P22106); chain CSIFGVFDIKTDAVELRKKALELSRLMRHRGPDWSGIYASDNAILAHERLSIVDVNAGAQPLYNQQKTHVLAVNGEIYNHQALRAEYGDRYQFQTGSDCEVILALYQEKGPEFLDDLQGMFAFALYDSEKDAYLIGRDHLGIIPLYMGYDEHGQLYVASEMKALVPVCRTIKEFPAGSYLWSQDGEIRSYYHRDWFDYDAVKDNVTDKNELRQALEDSVKSHLMSDVPYGVLLSGGLDSSIISAITKKYAARRVEDQERSEAWWPQLHSFAVGLPGSPDLKAAQEVANHLGTVHHEIHFTVQEGLDAIRDVIYHIETYDVTTIRASTPMYLMSRKIKAMGIKMVLSGDGSDEVFGGYLYFHKAPNAKELHEETVRKLLALHMYDCARANKAMSAWGVEARVPFLDKKFLDVAMRINPQDKMCGNGKMEKHILRECFEAYLPASVAWRQKEQFSDGVGYSWIDTLKEVAAQQVSDQQLETARFRFPYNTPTSKEAYLYREIFEELFPLPSAAECVPGGPSVACSSAKAIEWDEAFKKMDDPSGRAVGVHQSAYK
B8: protein Y93D (Thermus thermophilus, UniProt Q5SKR5); chain MSAPKPFVIGIAGGTASGKTTLAQALARTLGERVALLPMDHYYKDLGHLPLEERLRVNYDHPDAFDLALYLEHAQALLRGLPVEMPVYDFRADTRSPRRTPVRPAPVVILEGILVLYPKELRDLMDLKVFVDADADERFIRRLKRDVLERGRSLEGVVAQYLEQVKPMHLHFVEPTKRYADVIVPRGGQNPVALEMLAAKALARLARMGAA
B9: sacB (Priestia megaterium, UniProt D5DC07); chain KGNDSKDFNNSYGISHITRDNMVKIPQQQNSDQFKVPAFDESTIKNIASAKGKNASGNTIDLDVWDSWPLQNADGTVATYHGYQIVFALAGDPKDSNDTSVYLFYKKAGDKSIDSWKNAGRVFKDSDKFVPNDPHLKNQTQEWSGSGTLTKDGKVRLFYTDYSGKQYGKQTLTTAQVNMSQPNDNTLKVDGVEDYKSIFDGDGKIYQTVQQFIDEGGYDTGDNHTLRDPHYIEDNGHKYLVFEANTGTEDGYQGEDSLYNRAYYGGNNPFFQSEKKKLLEGSNKEKASLANGALGIIELNDDYTLKKVMKPLITSNTVTDEIERANIFKKDGKWYLFTDSRGSKMTIDGIGQDDVYMLGYVSNTLTGKYKPLNDTGLVLHMDLDPNDKTFTYSHFAVPQTKGDNVVITSYMTNRGFYEDNHSTFAPSFLVNIDGSKTSVVKDRVLEQGQLTVDED
Chain of UniProt Q99042 (whole entry, looked up): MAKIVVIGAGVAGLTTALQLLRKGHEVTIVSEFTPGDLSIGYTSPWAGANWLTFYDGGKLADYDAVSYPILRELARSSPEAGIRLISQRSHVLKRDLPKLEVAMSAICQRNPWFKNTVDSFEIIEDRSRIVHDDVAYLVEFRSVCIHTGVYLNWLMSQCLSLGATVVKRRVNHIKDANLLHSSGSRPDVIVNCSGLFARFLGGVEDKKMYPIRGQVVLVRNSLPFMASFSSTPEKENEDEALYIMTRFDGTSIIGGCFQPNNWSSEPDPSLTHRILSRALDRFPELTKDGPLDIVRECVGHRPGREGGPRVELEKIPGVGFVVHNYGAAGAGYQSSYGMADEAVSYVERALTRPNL
Chain of UniProt Q6ZQB6 (whole entry, looked up): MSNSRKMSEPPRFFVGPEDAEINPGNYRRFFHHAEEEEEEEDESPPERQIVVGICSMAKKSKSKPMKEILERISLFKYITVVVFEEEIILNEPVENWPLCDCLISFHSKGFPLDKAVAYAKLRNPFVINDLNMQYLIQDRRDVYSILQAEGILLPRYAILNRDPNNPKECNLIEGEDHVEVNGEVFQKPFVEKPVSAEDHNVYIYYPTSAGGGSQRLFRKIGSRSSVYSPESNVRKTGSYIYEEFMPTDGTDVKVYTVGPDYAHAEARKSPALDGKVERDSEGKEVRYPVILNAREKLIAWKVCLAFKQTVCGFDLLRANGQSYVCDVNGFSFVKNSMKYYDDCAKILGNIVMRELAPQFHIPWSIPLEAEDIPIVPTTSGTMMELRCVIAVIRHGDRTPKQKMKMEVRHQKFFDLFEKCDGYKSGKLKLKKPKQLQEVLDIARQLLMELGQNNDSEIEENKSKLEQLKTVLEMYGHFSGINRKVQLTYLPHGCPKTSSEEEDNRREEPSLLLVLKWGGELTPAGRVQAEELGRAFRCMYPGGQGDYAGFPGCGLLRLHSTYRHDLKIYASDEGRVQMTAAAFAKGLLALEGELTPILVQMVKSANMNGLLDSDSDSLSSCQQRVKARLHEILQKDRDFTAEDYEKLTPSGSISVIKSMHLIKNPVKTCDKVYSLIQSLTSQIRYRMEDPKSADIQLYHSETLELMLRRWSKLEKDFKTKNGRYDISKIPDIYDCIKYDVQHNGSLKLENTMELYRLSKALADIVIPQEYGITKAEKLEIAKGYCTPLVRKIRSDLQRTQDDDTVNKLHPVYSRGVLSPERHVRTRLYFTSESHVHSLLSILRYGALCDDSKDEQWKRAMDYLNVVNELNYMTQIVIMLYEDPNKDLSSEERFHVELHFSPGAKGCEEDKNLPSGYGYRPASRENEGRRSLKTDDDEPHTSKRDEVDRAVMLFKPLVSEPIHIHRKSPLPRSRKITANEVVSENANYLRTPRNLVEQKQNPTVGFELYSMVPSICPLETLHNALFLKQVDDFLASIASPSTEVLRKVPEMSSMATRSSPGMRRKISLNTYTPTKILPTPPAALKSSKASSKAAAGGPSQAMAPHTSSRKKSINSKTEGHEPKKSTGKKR

DAO1 (Trigonopsis variabilis, UniProt Q99042) — kcat/Km (Nc1ccc2nc3ccc(N)cc3[s+]c2c1; pH 8, 22 °C, apparent): 5000 M⁻¹ s⁻¹
B1 (RbgA) — kcat/Km (Nc1nc2c(ncn2[C@@H]2O[C@H](COP(=O)(O)OP(=O)(O)OP(=O)(O)O)[C@@H](O)[C@H]2O)c(=O)[nH]1; pH 7.5, 37 °C, KCl 200 mM, free enzyme, apparent, together with: GTP 0-1 mM): 27.8 M⁻¹ s⁻¹
B2 (BaiA1) — kcat/Km (NC(=O)c1ccc[n+]([C@@H]2O[C@H](COP(=O)(O)OP(=O)(O)OC[C@H]3O[C@@H](n4cnc5c(N)ncnc54)[C@H](OP(=O)(O)O)[C@@H]3O)[C@@H](O)[C@H]2O)c1; pH 8.7, 37 °C, cofactor varied, together with: glycocholic acid 1.4 mM): 133 M⁻¹ s⁻¹
B3 (putA N641A) — kcat/Km (O=C(O)[C@@H]1CCCN1; pH 8, 23 °C): 29 ± 15 M⁻¹ s⁻¹
Ppip5k2 (Mus musculus, UniProt Q6ZQB6) — kcat/Km (O=P(O)(O)O[C@@H]1[C@@H](OP(=O)(O)O)[C@H](OP(=O)(O)OP(=O)(O)O)[C@@H](OP(=O)(O)O)[C@H](OP(=O)(O)OP(=O)(O)O)[C@@H]1OP(=O)(O)O; pH 5, 37 °C): 14000 M⁻¹ s⁻¹
B4 (TcC) — kcat/Km (O=P(O)(O)OC[C@H]1O[C@H](OP(=O)(O)OP(=O)(O)O)[C@H](O)[C@@H]1O; pH 8.3, 37 °C, GMP biosynthesis, apparent, together with: Gua 100 µM): 930000 ± 90000 M⁻¹ s⁻¹
DAD V1M (Burkholderia sp.) — kcat/Km (O=C(CO)c1ccc(O)cc1; pH 6, 20 °C, together with: O2): 3.8e+06 ± 200000 M⁻¹ s⁻¹
B5 (Tat) — kcat/Km (O=C(O)C(=O)Cc1ccccc1; pH 7, 38 °C, together with: PLP): 3000 M⁻¹ s⁻¹
B6 (CDO) — kcat/Km (N[C@@H](CS)C(=O)O; pH 6.1, 37 °C, together with: O2, Fe(II)): 50 ± 20 M⁻¹ s⁻¹
B7 (asnB E349D) — kcat/Km (NC(=O)CC[C@H](N)C(=O)O; pH 8, 37 °C, 100 mM NaCl, glutaminase site, together with: MgCl2; no ATP): 1510 M⁻¹ s⁻¹
B8 (protein Y93D) — kcat/Km (Nc1ccn([C@@H]2O[C@H](CO)[C@@H](O)[C@H]2O)c(=O)n1; pH 7.2, 25 °C, KCl 100 mM, together with: ATP 100–200 µM): 5800 M⁻¹ s⁻¹
B9 (sacB) — kcat/Km (OC[C@H]1O[C@@](CO)(O[C@H]2O[C@H](CO)[C@@H](O)[C@H](O)[C@H]2O)[C@@H](O)[C@@H]1O; pH 6.6): 18300 M⁻¹ s⁻¹

For quick reference, copied from above:
B6 (CDO) — kcat/Km (N[C@@H](CS)C(=O)O; pH 6.1, 37 °C, together with: O2, Fe(II)): 50 ± 20 M⁻¹ s⁻¹
